Assay results of several laboratories.
Every numbered part comes from another study and shows a few of its results, in no order.
Sequence of UniProt P11229 (whole entry, looked up): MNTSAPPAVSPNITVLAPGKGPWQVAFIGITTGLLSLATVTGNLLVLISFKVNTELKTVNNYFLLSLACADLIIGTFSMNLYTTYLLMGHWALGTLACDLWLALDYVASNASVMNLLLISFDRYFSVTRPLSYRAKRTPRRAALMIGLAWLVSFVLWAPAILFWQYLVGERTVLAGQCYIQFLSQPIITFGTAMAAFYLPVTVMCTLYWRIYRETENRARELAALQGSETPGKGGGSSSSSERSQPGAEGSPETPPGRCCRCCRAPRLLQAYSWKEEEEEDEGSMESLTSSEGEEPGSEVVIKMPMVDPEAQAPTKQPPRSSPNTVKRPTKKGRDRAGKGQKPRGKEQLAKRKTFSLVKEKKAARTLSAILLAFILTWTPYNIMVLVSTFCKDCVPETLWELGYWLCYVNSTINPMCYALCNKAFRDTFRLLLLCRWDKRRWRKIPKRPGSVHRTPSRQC
Sequence of UniProt P41145 (whole entry, looked up): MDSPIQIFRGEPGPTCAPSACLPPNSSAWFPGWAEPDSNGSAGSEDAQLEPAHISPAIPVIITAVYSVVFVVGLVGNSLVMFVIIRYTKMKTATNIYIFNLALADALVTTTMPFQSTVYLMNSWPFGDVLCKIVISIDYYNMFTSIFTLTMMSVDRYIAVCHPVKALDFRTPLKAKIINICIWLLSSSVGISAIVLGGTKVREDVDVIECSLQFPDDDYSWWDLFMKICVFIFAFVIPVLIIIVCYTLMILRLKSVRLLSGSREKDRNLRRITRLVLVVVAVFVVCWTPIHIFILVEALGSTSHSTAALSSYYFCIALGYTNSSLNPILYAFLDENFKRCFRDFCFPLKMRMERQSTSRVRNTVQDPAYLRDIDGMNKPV
Sequence of UniProt P28223 (whole entry, looked up): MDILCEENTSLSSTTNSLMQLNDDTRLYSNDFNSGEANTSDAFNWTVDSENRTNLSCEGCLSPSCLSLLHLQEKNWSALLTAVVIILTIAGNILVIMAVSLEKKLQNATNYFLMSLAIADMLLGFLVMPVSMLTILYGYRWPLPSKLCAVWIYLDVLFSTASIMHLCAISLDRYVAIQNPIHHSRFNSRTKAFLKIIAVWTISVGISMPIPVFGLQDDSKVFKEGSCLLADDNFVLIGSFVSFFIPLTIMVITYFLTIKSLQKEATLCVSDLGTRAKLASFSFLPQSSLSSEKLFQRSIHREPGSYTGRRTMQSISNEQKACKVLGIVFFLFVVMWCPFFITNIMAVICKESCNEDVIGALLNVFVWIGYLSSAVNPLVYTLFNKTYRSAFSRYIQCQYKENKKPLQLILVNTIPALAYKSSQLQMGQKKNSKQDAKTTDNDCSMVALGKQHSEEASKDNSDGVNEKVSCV
Sequence of UniProt P35372 (whole entry, looked up): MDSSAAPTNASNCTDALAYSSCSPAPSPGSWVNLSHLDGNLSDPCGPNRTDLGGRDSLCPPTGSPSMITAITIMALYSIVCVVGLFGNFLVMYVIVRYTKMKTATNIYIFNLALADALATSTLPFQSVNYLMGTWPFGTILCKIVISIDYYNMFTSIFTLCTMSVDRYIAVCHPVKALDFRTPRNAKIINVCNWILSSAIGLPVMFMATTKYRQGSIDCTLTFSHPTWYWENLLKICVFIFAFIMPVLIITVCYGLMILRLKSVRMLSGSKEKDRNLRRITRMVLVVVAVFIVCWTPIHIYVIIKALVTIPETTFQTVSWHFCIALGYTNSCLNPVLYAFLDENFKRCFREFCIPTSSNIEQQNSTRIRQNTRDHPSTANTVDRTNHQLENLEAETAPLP

Study 1
Compound: CC(C)(C)OC(=O)N1CCCC1CNC1CCC(c2cc(F)ccc2F)(S(=O)(=O)c2ccc(Cl)cc2)CC1 (centres unmarked)
Read-out: cell-free assay
Tested at: 10 µM
Endpoint: inhibition
OPRK1 (Homo sapiens, UniProt P41145): 69.8%
OPRM1 (Homo sapiens, UniProt P35372): 49.1%
CHRM1 (Homo sapiens, UniProt P11229): 8.44%
HTR2A (Homo sapiens, UniProt P28223): 92.2%

Study 2
Cell line: HEK-293T
Organism: VSV pseudotyped with VSV-G
Tested at: 10 µM
Time: 16 h
Endpoint: pseudovirus infection
Cn1cnc([N+](=O)[O-])c1Sc1ncnc2nc[nH]c12: 92.8%
Nc1ccc(S(N)(=O)=O)cc1: 140%
Cc1cnc(C(=O)NCCc2ccc(S(=O)(=O)NC(=O)NC3CCCCC3)cc2)cn1: 103%
CC(C)CN(C[C@@H](O)[C@H](Cc1ccccc1)NC(=O)O[C@H]1CO[C@H]2OCC[C@H]21)S(=O)(=O)c1ccc(N)cc1: 108%
O=C(CCCN1CCC(O)(c2ccc(Cl)cc2)CC1)c1ccc(F)cc1: 117%
O=C1CN(/N=C/c2ccc([N+](=O)[O-])o2)C(=O)N1: 112%
COC(=O)[C@H](c1ccccc1Cl)N1CCc2sccc2C1: 97.5%

Single results of other studies
C[C@]12CC[C@H]3[C@@H](CCC4=CC(=O)CC[C@@]43C)[C@@H]1CC[C@@H]2OC(=O)CCc1ccccc1 — viability (A-375; 100 µM, 60 h): 5.93%
NC(=O)C[S@@+]([O-])C(c1ccccc1)c1ccccc1 — nuclear SOX9 intensity (mouse MPNST tumor cells; high-content immunofluorescence imaging, item: nuclear SOX9; 10 µM, 12 h, mean of 2 replicates; relative to: DMSO control, higher = more nuclear SOX9): 98.4 % of DMSO
O=C(O)c1nn(Cc2ccc(Cl)cc2Cl)c2ccccc12 — viability (HaCaT; 100 µM, 60 h): 124%

Repeated from above (single results of other studies):
C[C@]12CC[C@H]3[C@@H](CCC4=CC(=O)CC[C@@]43C)[C@@H]1CC[C@@H]2OC(=O)CCc1ccccc1 — viability (A-375; 100 µM, 60 h): 5.93%
NC(=O)C[S@@+]([O-])C(c1ccccc1)c1ccccc1 — nuclear SOX9 intensity (mouse MPNST tumor cells; high-content immunofluorescence imaging, item: nuclear SOX9; 10 µM, 12 h, mean of 2 replicates; relative to: DMSO control, higher = more nuclear SOX9): 98.4 % of DMSO
